Experimental data collected from several papers.
Lines come from different studies, so protocols differ. pEC50, pIC50, pKi: −log10 of the molar value.
Target: 5-hydroxytryptamine receptor 2A (HTR2A, Homo sapiens, UniProt P28223)
Sequence of UniProt P28223 (whole entry, looked up): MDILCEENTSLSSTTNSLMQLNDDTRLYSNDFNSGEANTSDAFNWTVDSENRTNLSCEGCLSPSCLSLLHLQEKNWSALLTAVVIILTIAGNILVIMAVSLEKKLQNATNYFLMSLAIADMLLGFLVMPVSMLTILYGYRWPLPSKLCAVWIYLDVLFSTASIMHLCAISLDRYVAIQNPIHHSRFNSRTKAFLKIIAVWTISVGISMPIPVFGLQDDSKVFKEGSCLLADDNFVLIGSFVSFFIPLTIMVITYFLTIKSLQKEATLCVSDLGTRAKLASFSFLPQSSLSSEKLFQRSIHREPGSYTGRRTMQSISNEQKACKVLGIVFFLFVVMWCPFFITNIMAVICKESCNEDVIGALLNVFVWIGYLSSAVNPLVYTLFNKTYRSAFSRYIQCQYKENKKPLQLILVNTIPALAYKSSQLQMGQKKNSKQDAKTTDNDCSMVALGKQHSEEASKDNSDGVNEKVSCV

| SMILES | assay | setting | quantity | value |
| --- | --- | --- | --- | --- |
| C/C=C1/CN2CCc3c([nH]c4ccccc34)[C@@H]2C[C@@H]1/C(=C\OC)C(=O)OC | ligand displacement, radioligand | cell membranes | pIC50 | 6.71 |
| CN(CCc1ccc(O)c(Br)c1)CCc1nccs1 | ligand displacement, radioligand | cell membranes | pKi | 7.02 |
| NCC1CC1c1cc(O)ccc1OCC1CC1 (single isomer, unassigned; (+)) | calcium signal, agonist | – | pEC50 | 6.43 |
| CN(C)[C@H](CNC(=O)/C=C/c1cccc2ccccc12)Cc1ccc(O)cc1 | cell-free assay | – | pKi | 6.72 |
| COc1c(O)cccc1C(=O)C1CCN(CCc2ccc(F)cc2)CC1 | ligand displacement, radioligand | – | pKi | 8.80 |
| CN(C)CCc1c[nH]c2ccccc12 | ligand displacement in cells, radioligand | – | pKi | 7.05 |
| Cc1cc(C2=CCN(CC3OCCO3)CC2)cc([N+](=O)[O-])c1N | calcium signal, agonist | – | pEC50 | 5.94 |
| COc1cc(CCN)c(OC)cc1Cl | ligand displacement in cells, radioligand | – | pKi | 7.88 |
| COc1c(OCCOCCOCCOCCOCCOc2cccc(C(=O)C3CCN(CCc4ccc(F)cc4)CC3)c2OC)cccc1C(=O)C1CCN(CCc2ccc(F)cc2)CC1 | phosphorylation in cells, antagonist | – | pIC50 | 7.01 |
| CCCCN(CCCC)CCc1c[nH]c2ccccc12 | ligand displacement in cells, radioligand | – | pKi | 6.08 |
| COc1c(OCCOCCOc2cccc(C(=O)C3CCN(CCc4ccc(F)cc4)CC3)c2OC)cccc1C(=O)C1CCN(CCc2ccc(F)cc2)CC1 | ligand displacement, radioligand | – | pKi | 8.51 |
| CC1(CCN2CCc3ccccc3C2)Cc2cc(Cl)ccc2C1=O (single isomer, unassigned) | ligand displacement, radioligand | – | pKi | 6.14 |

Excerpt of the above:
| SMILES | assay | setting | quantity | value |
| --- | --- | --- | --- | --- |
| CN(C)[C@H](CNC(=O)/C=C/c1cccc2ccccc12)Cc1ccc(O)cc1 | cell-free assay | – | pKi | 6.72 |
| COc1c(O)cccc1C(=O)C1CCN(CCc2ccc(F)cc2)CC1 | ligand displacement, radioligand | – | pKi | 8.80 |
